{"data": "Published values gathered from unrelated publications", "note": "Lines come from different studies, so protocols differ. Several values in a cell are separate wells, animals, samples, runs or records. Numbers after ± are the reported error.", "sequence of UniProt O60656 (whole entry, looked up)": "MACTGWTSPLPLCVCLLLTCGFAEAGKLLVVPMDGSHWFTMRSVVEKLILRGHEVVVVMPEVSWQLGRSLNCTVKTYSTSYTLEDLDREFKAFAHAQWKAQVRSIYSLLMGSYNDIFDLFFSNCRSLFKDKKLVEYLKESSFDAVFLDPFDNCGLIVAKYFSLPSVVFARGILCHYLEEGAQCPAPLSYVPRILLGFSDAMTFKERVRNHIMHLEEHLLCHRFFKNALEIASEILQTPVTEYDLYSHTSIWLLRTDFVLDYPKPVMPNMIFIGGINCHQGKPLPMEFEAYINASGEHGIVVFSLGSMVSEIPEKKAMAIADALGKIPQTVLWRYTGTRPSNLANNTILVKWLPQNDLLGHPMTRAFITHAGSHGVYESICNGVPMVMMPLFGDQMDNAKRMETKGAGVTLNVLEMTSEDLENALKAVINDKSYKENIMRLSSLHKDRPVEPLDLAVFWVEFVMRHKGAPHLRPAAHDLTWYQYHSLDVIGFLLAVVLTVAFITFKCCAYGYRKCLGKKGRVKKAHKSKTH"}
{"Substance": "CN1C(=O)C=CC1=O", "tested on": "bovine lens protease", "conditions": "0.2 mM, 37 °C", "quantity": "remaining activity", "result": "12%"}
{"Substance": "C=C(C)C(=O)OCC(C)O (stereo not shown)", "tested on": "cysteine peptide Ac-RFAACAA-COOH", "test": "DPRA RapidFire-MS/MS", "conditions": "24 h, pH 7.5, added: 5.0 µM cysteine peptide", "quantity": "peptide depletion", "result": "inactive"}
{"Substance": "CC(C)[C@@H]1NC(=O)c2coc(n2)-c2coc(n2)-c2coc(n2)C/C=C/c2coc(n2)-c2coc(n2)-c2coc1n2", "tested on": "human telomeric quadruplex d(TTAGGG)4", "test": "UV melting", "conditions": "20 µM, pH 7.5, added: 150 mM K+", "scale": "baseline: DNA without compound", "quantity": "melting temperature shift", "result": "30.1 °C"}
{"Substance": "CCCCCCCCCCCCOC(=O)c1cc(O)c(O)c(O)c1", "tested on": "cysteine peptide Ac-RFAACAA-COOH", "test": "peptide depletion, DPRA RapidFire-MS/MS", "conditions": "24 h, pH 7.5, room temperature, added: 5.0 µM cysteine peptide", "quantity": "IC50", "result": "inactive"}
{"Substance": "Clc1ccc(C(c2ccccc2Cl)C(Cl)Cl)cc1 (stereo not shown)", "tested on": "estrogen receptor alpha (human)", "test": "luciferase reporter gene, agonist", "system": "BG1Luc4E2", "conditions": "10 µM, 24 h", "scale": "baseline: maximum of estradiol", "quantity": "efficacy", "result": "52 ± 1%"}
{"Substance": "Nc1nc2c(ncn2[C@@H]2O[C@@H]3COP(=O)(O)O[C@H]3[C@H]2O)c(=O)[nH]1", "tested on": "rod cyclic nucleotide-gated channel, Ambystoma tigrinum", "test": "ion current, agonist, inside-out patch clamp", "conditions": "after EDTA/EGTA exposure, added: calmodulin 200 nM, Ca2+ 20 µM, Mg2+ 100 µM", "quantity": "Hill coefficient", "result": "2.44 and 2.47"}
{"Substance": "O=C(O)c1ccc2c(c1)C(=O)OC2=O", "tested on": "cysteine peptide Ac-RFAACAA-COOH", "test": "DPRA RapidFire-MS/MS", "conditions": "24 h, pH 7.5, added: 5.0 µM cysteine peptide", "quantity": "peptide depletion", "result": "inactive"}
{"Substance": "IINFEKL", "tested on": "ERAP1 human wild type", "test": "activator", "system": "peptide", "conditions": "100 µM, pH 8.0, 27 °C, added: L-AMC substrate", "quantity": "K1/2 of L-AMC", "result": "0.19 mM and ~0.19 mM"}
{"Substance": "Cn1sc(Cl)cc1=O", "tested on": "cysteine peptide Ac-RFAACAA-COOH", "test": "DPRA RapidFire-MS/MS", "conditions": "24 h, pH 7.5, added: 5.0 µM cysteine peptide", "quantity": "maximal peptide depletion", "result": "-122%"}
{"Substance": "UGT1A9 (Homo sapiens, UniProt O60656)", "tested on": "Oc1ccc(/C=C/c2cc(O)cc(O)c2)cc1", "test": "steady-state kinetics", "conditions": "pH 7.4, 37 °C", "quantity": "Vmax", "result": "0.000196 µmol/min/mg"}
{"Substance": "CC(C)C[C@H](NC(=O)[C@@H](O)[C@H](N)Cc1ccccc1)C(=O)O", "tested on": "bovine lens protease", "conditions": "0.5 mM, 37 °C", "quantity": "remaining activity", "result": "88%"}
{"Substance": "CC(=O)N[C@@H](CC(N)=O)C(=O)NCC(=O)N[C@@H](CCCCN)C(=O)N[C@@H](C)C(N)=O", "tested on": "Asn-Gly peptide isomerisation to succinimide", "test": "1H NMR time course", "conditions": "pH 7.4, 37 °C", "quantity": "rate constant k1", "result": "0.0362 h⁻¹"}
{"Substance": "IINFEKE", "tested on": "ERAP1 human L734R", "test": "activator", "system": "peptide", "conditions": "100 µM, pH 8.0, 27 °C, added: L-AMC substrate", "quantity": "Hill coefficient", "result": 1.5}
{"note": "Some of these lines once more:"}
{"Substance": "C=C(C)C(=O)OCC(C)O (stereo not shown)", "tested on": "cysteine peptide Ac-RFAACAA-COOH", "test": "DPRA RapidFire-MS/MS", "conditions": "24 h, pH 7.5, added: 5.0 µM cysteine peptide", "quantity": "peptide depletion", "result": "inactive"}
